Results of several laboratories.
Protocols differ between the studies behind these lines. ± gives the spread as reported.

For COc1nnc2ccc(N3CCC(c4ccc(OCCN5CCN(C)C(=O)[C@H]5C)cc4)CC3)nn12, the terminal half-life was 1.9 h (human, plasma; oral, 40 mg once daily, single dose, monotherapy).
Under “terminal volume of distribution”, CN(C)CCCNC(=O)/C(=C/CCCCC(=O)NO)COc1cccc2ccccc12 is recorded as 58.8 L (human patients; intravenous, 312.5 mg/m2, day 1, single dose, mean).
For CN1C(=O)[C@@H](NC(=O)c2nnc(Cc3ccccc3)[nH]2)COc2cccnc21, the terminal half-life was 8.2 h (human, plasma; oral, 600 mg once daily, day 14, geometric mean).
CCCn1cc(C)c2c(=O)[nH]c(-c3cc(S(=O)(=O)N4CCN(CC)CC4)ccc3OCC)nc21: “terminal elimination rate constant” 0.16 ± 0.0462 h⁻¹ (LC-MS/MS; human, plasma; 100 mg, added: alcoholic beverage 0.5 g/kg).
The terminal half-life of CN(CC#N)C(=O)C[C@H](Nc1nc2ccccc2[nH]1)c1cccc(C(F)(F)F)c1 is reported as 4.2 ± 0.8 h (human; intravenous infusion, 6 mg/kg, 1 mg/mL formulation).
Cc1cc(-c2nnc(N)nc2-c2ccc(F)cc2)cc(Cl)n1 has a terminal half-life of 10.6 h (human patients, plasma; oral, 200 mg capsule, single dose, arithmetic mean).
C[C@@]1(c2cc(NC(=O)c3ccc(C#N)cn3)ccc2F)C=CSC(N)=N1 has a terminal half-life of 9 h (healthy young male human, plasma; oral, 1 mg, single dose).
With Cc1cc(-c2nccc3c2ccn3CC(=O)Nc2ccc(-c3cnccn3)cn2)ccn1 the terminal half-life was 9.74 h (human, plasma; oral, 15 mg once daily, day 1, geometric mean).
For Cl.[2H]C([2H])([2H])CC(=O)c1cnc(NC(=O)C2CC2)cc1Nc1cccc(-c2ncn(C([2H])([2H])[2H])n2)c1OC, “terminal elimination rate constant” read 0.056 h⁻¹ (human, fasted, multiple dose; oral, 40 mg twice daily, tablet, day 14, geometric mean).

Excerpt of the above:
Under “terminal volume of distribution”, CN(C)CCCNC(=O)/C(=C/CCCCC(=O)NO)COc1cccc2ccccc12 is recorded as 58.8 L (human patients; intravenous, 312.5 mg/m2, day 1, single dose, mean).
